Measured values of several laboratories.
Each line is one published result; not all experiments were run side by side.
Target: 5-hydroxytryptamine receptor 3A (HTR3A, Homo sapiens, UniProt P46098)
UniProt P46098, sequence (whole entry, looked up): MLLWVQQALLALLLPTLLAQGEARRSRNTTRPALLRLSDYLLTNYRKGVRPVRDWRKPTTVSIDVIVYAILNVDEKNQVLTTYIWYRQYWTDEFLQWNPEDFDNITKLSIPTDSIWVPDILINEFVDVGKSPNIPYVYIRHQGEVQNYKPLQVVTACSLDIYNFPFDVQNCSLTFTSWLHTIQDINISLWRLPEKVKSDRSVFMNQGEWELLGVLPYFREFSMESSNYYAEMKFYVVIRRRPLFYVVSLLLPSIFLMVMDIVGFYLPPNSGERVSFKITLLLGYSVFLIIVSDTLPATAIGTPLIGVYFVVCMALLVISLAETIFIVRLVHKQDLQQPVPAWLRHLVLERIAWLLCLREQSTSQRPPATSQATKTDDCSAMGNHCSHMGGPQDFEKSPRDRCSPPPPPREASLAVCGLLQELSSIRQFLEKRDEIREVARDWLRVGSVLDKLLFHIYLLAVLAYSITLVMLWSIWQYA

Structure (SMILES) = CN(C(=O)n1cnc(-c2ccc[n+]([O-])c2)c1)C1CCCCC1; assay = receptor binding; conditions = 10 µM, subtype 5HT3; inhibition = -1.51%
Structure (SMILES) = O=C(NO)c1ccc(CN2CCCCc3ccccc32)c(F)c1; assay = radioligand binding, radioligand displacement; conditions = 10 µM, mean of replicates; inhibition = 13.2%
Structure (SMILES) = O=C(CN1CCO[C@H](COc2cccnc2)C1)N1CCc2ccccc21; assay = radioligand binding; conditions = concentration not given, together with: [3H]GR65630; inhibition = 2.6%
Structure (SMILES) = CN1CCC(CNc2ccc3ncc(-c4cccc(OC(F)(F)F)c4)n3n2)CC1; assay = ion channel activity, blocker; conditions = 10 µM; how to read = baseline: control; inhibition = > 50%
Structure (SMILES) = CN1[C@@H]2CC[C@H]1C[C@@H](OC(=O)c1c[nH]c3ccccc13)C2; assay = radioligand binding; test system = human; conditions = 10 µM; inhibition = 100%
Structure (SMILES) = Cc1ncccc1OC[C@H]1CN(CCN2CCc3ccccc32)CCO1; assay = radioligand binding; conditions = concentration not given, together with: [3H]GR65630; inhibition = -12.7%
Structure (SMILES) = OCCCN1CC[C@@H]2C[C@H]1c1cc(-c3ccc(C(F)(F)F)cc3)ccc12; assay = radioligand binding, PDSP competition binding; conditions = 10 µM; inhibition = < 50%
Structure (SMILES) = O=C1c2ccccc2CCN1CCCCN1CCN(c2cccc(Cl)c2Cl)CC1; assay = radioligand binding; conditions = concentration not given, together with: [3H]GR65630; inhibition = 99.5%
Structure (SMILES) = CCS(=O)(=O)c1nc(S(=O)(=O)c2ccccc2Cl)c(N2CCN(C)C(=O)[C@H]2C)s1; conditions = 10 µM; inhibition = 7.15%

Repeated from above:
Structure (SMILES) = Cc1ncccc1OC[C@H]1CN(CCN2CCc3ccccc32)CCO1; assay = radioligand binding; conditions = concentration not given, together with: [3H]GR65630; inhibition = -12.7%
